Measured values from different studies.
Each line is one published result; not all experiments were run side by side. ± marks the error that the study gave.
Sequence of UniProt P37231 (whole entry, looked up): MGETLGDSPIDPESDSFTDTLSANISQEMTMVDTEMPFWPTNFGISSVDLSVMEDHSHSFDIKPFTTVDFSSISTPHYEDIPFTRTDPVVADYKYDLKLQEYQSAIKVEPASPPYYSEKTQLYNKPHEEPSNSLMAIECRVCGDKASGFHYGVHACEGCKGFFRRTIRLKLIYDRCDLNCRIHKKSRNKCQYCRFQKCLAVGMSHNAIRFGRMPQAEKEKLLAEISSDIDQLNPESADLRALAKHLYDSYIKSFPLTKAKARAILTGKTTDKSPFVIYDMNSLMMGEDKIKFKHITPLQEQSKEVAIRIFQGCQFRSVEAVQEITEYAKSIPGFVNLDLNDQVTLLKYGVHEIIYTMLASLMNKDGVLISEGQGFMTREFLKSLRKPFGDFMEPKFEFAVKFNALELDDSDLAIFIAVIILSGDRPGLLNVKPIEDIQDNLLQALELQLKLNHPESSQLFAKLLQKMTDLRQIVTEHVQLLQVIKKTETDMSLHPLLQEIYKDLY

Structure (SMILES) | target or system | test | test system | setting | scale | endpoint | value
CC(C)(O)c1ccn2c(-c3ccc(F)c(-c4ccc(F)cc4C#N)c3)cnc2c1F | HEK-293T stably expressing GABAA receptors | quantitative RT-PCR, refers to: BiP, spliced XBP1, CHOP | – | 5 µM, 24 h, UPR markers, added: hispidulin 10 µM | – | mRNA level | no effect
O=C(OC[C@@]1(O)C(=O)C=C[C@H]2[C@@H]1[C@H]1C=C[C@@H]2C(=O)[C@]1(O)COC(=O)c1ccccc1)c1ccccc1 | SW480 | cell growth or viability, MTT | – | 12.5 µg/mL | – | viability | 83%
CC(=O)N[C@H](C(=O)N[C@H](C(=O)N[C@@H](CCCNC(=N)N)C(=O)N[C@@H](CC(N)=O)C(=O)N[C@@H](CC(=O)O)C(=O)N[C@H](C(=O)N1CCC[C@@H]1C(=O)N1CCC[C@H]1C(=O)N[C@@H](CC(=O)O)C(=O)N[C@@H](CO)C(=O)N[C@@H](CC(C)C)C(=O)N[C@@H](CC(C)C)C(=O)N[C@H](C(=O)N[C@@H](Cc1ccccc1)C(N)=O)C(C)C)C(C)C)[C@@H](C)O)C(C)C | HEK293T | subcellular fractionation LC-MS | cytoplasm | 20 µM, 2 h | – | cytoplasmic peptide amount | not detected
C=CC(=O)Oc1ccc(OC)c(-c2c[nH]c3ncc(-c4cncc(C(=O)N(C)C)c4)cc23)c1 | HEK293T | – | – | concentration not given | – | cytotoxicity | not toxic
C=C(NC(=O)c1csc(-c2nc3c(cc2O)-c2nc(cs2)C(=O)NC(C(C)O)C(=O)NC(=C(C)OC)c2nc(cs2)C(=O)NC2c4nc(cs4)C(=O)NC(COC(=O)c4c5c6c(cccc6n4O)COC(=O)C(OC4CC(C)(O)C(N(C)C)C(C)O4)C2OC5)c2nc-3cs2)n1)C(N)=O (centres unmarked) | – | – | male cynomolgus monkey, plasma | intravenous, 3 mg/kg, single dose, infusion | – | AUC(0-inf) | 20900 ng·h/mL
CN1CCCNC(=O)c2cccc(c2)C(=O)NCCCN(C)CCCNc2cccc3c2C(=O)c2cccc(c2C3=O)NCCC1 | Ca9-22 | cell growth or viability, CCK-8 | – | 15 µM, 48 h | – | viability | 4.39%
Cl.NCc1ccc2c(c1)CN(C1CCC(=O)NC1=O)C2=O (centres unmarked) | SNU-182 | CellTiter-Glo | – | concentration not given, 72 h | – | minimum viability | 79.8 ± 7.57%
Cc1c(Cc2ccc(Cl)c(O[C@H](C)C(=O)O)c2)c2ccc(C(=O)N[C@@H](C)c3ccc(C(C)(C)C)cc3)cc2n1C | PPARG (Homo sapiens, UniProt P37231) | ligand displacement, TR-FRET | – | – | – | IC50 | 2.18 nM
CC(C)OCCOCc1ccc(OCC(O)CN(N=O)C(C)C)cc1 (centres unmarked) | V79 | – | – | 0.75 mg/mL, 4 h, with and without induced rat S9 | – | HPRT mutagenicity | negative
Cc1cccnc1-c1csc(C(=O)Nc2cc(Cl)cc(NS(C)(=O)=O)c2)c1 | NHDF | cell growth or viability, ATP luminescence | – | 10 days | – | CC50 | > 10 µM
O=C(NCC(F)(F)F)c1cccc(N2Cc3cn(Cc4ccc(F)cc4)nc3C2)c1 | MDR1-MDCK | – | – | – | relative to: B-A over A-B | efflux ratio | 4.2
COc1ccc(O)cc1-c1c[nH]c2ncc(-c3cncc(C(=O)N(C)C)c3)cc12 | HEK293T | – | – | concentration not given | – | cytotoxicity | not toxic
COC1CN([C@H]2CC[C@H]([C@@]3(C)Oc4c(Cl)cc(C(=O)NCc5c(SC)cc(C)[nH]c5=O)c(C)c4O3)CC2)C1 | – | RNA-seq, refers to: TUFT1 | human, whole blood | dose not given, 24 h | relative to: pretreatment baseline | log2 fold change | 1.86
CC(C)C[C@@H]1NC(=O)[C@H](CO)NC(=O)[C@H](CC(=O)O)NC(=O)[C@@H]2CCCN2C(=O)[C@H]2CCCN2C(=O)[C@H](C(C)C)NC(=O)[C@H](CC(=O)O)NC(=O)[C@H](CC(N)=O)NC(=O)[C@H](CCCNC(=N)N)NC(=O)[C@H]([C@@H](C)O)NC(=O)[C@H](C(C)C)NC(=O)CCNC(=O)CCNC(=O)[C@H](Cc2ccccc2)NC(=O)[C@H](C(C)C)NC(=O)[C@H](CC(C)C)NC1=O | HEK293T | subcellular fractionation LC-MS | cytoplasm | 20 µM, 2 h | – | cytoplasmic peptide amount | not detected
CN(C)C(=O)c1cccc(N2Cc3cn(Cc4ccc(F)c(F)c4)nc3C2)c1 | MDR1-MDCK | – | – | – | relative to: B-A over A-B | efflux ratio | 1.1
Cc1c(Cc2ccc(OC(C)(C)C(=O)O)cc2)c2ccc(C(=O)N[C@@H](C)c3ccc(C(F)(F)F)cc3)cc2n1C | Peroxisome proliferator-activated receptor gamma, ligand-binding domain (PPARG, Homo sapiens, UniProt P37231) | reporter gene, luciferase reporter | HEK293T, Gal4-PPARγ LBD | – | – | IC50 | 2400 nM
CN(C)C(=O)c1cccc(N2Cc3cnn(Cc4ccc(F)cc4)c3C2)c1 | MDR1-MDCK | – | – | – | relative to: B-A over A-B | efflux ratio | 7.3
CC1(C)C(NC(=O)C(=NOC2(C(=O)O)CC2)c2csc(N)n2)C(=O)N1OS(=O)(=O)O (centres unmarked) | HFL1 | cell growth or viability | – | – | – | CC50 | > 100 µM
CN(C)C(=O)c1ccnc(N2Cc3cn(Cc4ccc(Cl)cc4)nc3C2)n1 | MDR1-MDCK | – | – | – | relative to: B-A over A-B | efflux ratio | 1
O=C1NC2(CC2)COc2ncc(F)cc2[C@H]2COCCN2c2ccn3ncc1c3n2 | CHL | chromosomal aberration test | – | 150 µg/mL, 4 h, with rat liver S9 | relative to: solvent control | relative population doubling | 80.9%

Some of these lines once more:
Structure (SMILES) | target or system | test | test system | setting | scale | endpoint | value
COC1CN([C@H]2CC[C@H]([C@@]3(C)Oc4c(Cl)cc(C(=O)NCc5c(SC)cc(C)[nH]c5=O)c(C)c4O3)CC2)C1 | – | RNA-seq, refers to: TUFT1 | human, whole blood | dose not given, 24 h | relative to: pretreatment baseline | log2 fold change | 1.86
Cl.NCc1ccc2c(c1)CN(C1CCC(=O)NC1=O)C2=O (centres unmarked) | SNU-182 | CellTiter-Glo | – | concentration not given, 72 h | – | minimum viability | 79.8 ± 7.57%
C=CC(=O)Oc1ccc(OC)c(-c2c[nH]c3ncc(-c4cncc(C(=O)N(C)C)c4)cc23)c1 | HEK293T | – | – | concentration not given | – | cytotoxicity | not toxic
